Published values pooled from the literature.
Cell line: DU-145
Effect on: cell growth or viability

With `Cc1ccc(C(=S)SCC(=O)O)cc1` the IC50 was ~1000 µM (trypan blue).
The IC50 of `C[C@]1([N+](=O)[O-])C(=O)c2ccccc2O[C@@H]1CC(=O)NC1CCCC1` is reported as 8 µM (SRB; 96 h).
For `O=C(N=P12CN3CN(CN(C3)C1)C2)c1ccccc1Br`, the IC50 was > 500 µM (MTT; 24 h).
For `C[C@]1([N+](=O)[O-])C(=O)c2cc(F)ccc2O[C@@H]1CC(=O)NC12CC3CC(CC(C3)C1)C2`, the IC50 was 1.21 µM (SRB; 96 h).
With `COc1cccc2c1C(=O)c1c(O)c3c(c(O)c1C2=O)C[C@@](O)(C(=O)CO)C[C@@H]3O[C@H]1C[C@H](N)[C@H](O)[C@H](C)O1` the IC50 was 14.2 µM (MTT).
For `CC(=O)Nc1ccc(-c2ccc(/C=C/C(=O)O)cc2Cl)cc1C12CC3CC(CC(C3)C1)C2`, the IC50 was > 5 µM (72 h).
For `O=C1[N-][Au]([Cl])([Cl])[n+]2ccccc21`, the IC50 was 19.9 µM (MTT; 24 h).
`CCCCNC(=O)C[C@H]1Oc2ccccc2C(=O)[C@]1(C)[N+](=O)[O-]` gave an IC50 of 15.7 µM (SRB; 96 h).
For `COc1cccc2c1C(=O)c1c(O)c3c(c(O)c1C2=O)C[C@@](O)(C(=O)CO)C[C@@H]3O[C@H]1C[C@H](N)[C@H](O)[C@H](C)O1`, the IC50 was ~0.11 µM (MTT; 48 h).
